Experimental data gathered from unrelated publications.
Each numbered part is a random draw from the data of one study; scales do not carry over between parts. Positions count from the first letter of the parent shown.

Series 1
Target: Centromere-binding protein 1, full length, His-tagged (CBF1, Saccharomyces cerevisiae, UniProt P17106, residues 1-351)
Sequence of UniProt P17106 (whole entry, looked up): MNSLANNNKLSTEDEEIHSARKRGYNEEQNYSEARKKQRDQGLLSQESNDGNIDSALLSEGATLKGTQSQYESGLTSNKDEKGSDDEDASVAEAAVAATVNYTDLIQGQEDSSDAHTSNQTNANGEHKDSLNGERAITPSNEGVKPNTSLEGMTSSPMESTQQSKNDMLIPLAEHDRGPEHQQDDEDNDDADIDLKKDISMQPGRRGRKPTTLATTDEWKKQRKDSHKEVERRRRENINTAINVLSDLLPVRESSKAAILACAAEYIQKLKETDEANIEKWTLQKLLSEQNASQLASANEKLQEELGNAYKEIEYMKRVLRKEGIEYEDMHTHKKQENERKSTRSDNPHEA
Technique: competition protein-binding microarray
Form: double-stranded DNA, one strand shown
Matrix: in vitro
Tested at: 2 µM
Setting: whole 60-bp probe, lowest competitor level
Together with: Pho4 competitor, 0.05 µM
Direction: higher = stronger binding
Measurement: fluorescence intensity
Constant ends, left off below: … GTCTTGATTCGCTTGACGCTGCTG
Sequence = TTTTGCGATAAATTTAACGTGCTTTTGAACAGGATT; value = 112 a.u.
Sequence = CTTCTGTAAATTTGGTAGGTGGGTGGACGCGCCCCG; value = 72.5 a.u.
Sequence = AGTTGGTATATTTTGCACGTGTAGTCTAATGTTCTT; value = 2030 a.u.
Sequence = CTTCTGTAAATTTGTCACGTGTTTTGACGCGCCCCG; value = 4700 a.u.
Sequence = CATACCCAACCTTGCTAAGTGGGTGAAGATATTTGT; value = 68.7 a.u.
Sequence = CTTTCCCGATCTTGTCACGCGACTTTAGCACATTTG; value = 645 a.u.
Sequence = GAATTTTGCGTTCCGCACGTTTCTCAAGTACATAAT; value = 123 a.u.
Sequence = CCCCCAACTGACACACACGTGAGACCCTGCTGAAAG; value = 689 a.u.
Sequence = AAATTACTAAGTTGCTGAGTGGGTGACGCCGTATGA; value = 71.7 a.u.
Sequence = ACCATGGTGCGAAGTTGCATGACAACCCGGACGAAT; value = 65.3 a.u.
Sequence = CATACCCAACCTTGAAAGGTGGGTGAAGATATTTGT; value = 74.7 a.u.
Sequence = CTCTTATTAACCAATGTCGTGCGGATCAAAATGCTA; value = 93.5 a.u.
Sequence = CATAAGTGAATGTTCCACGTGTTGAGTTTCTTACAG; value = 873 a.u.
Sequence = CTTCTGCTATGGATGCACGTGAACGCTCTATTCAAC; value = 1660 a.u.
Sequence = TTGAATACATAATCGCACGTGATGGAACAATAAAGA; value = 4690 a.u.

Series 2
Target: Histone acetyltransferase KAT6A, winged helix 2, GST fusion (KAT6A, Homo sapiens, UniProt Q92794, residues 85-181)
Technique: protein binding microarray
Form: double-stranded DNA, one strand shown
Matrix: in vitro
Tested at: not given
Setting: 8-mer, flanks averaged, mean of 2 arrays, mostly near background
Relative to: not given
Direction: higher = stronger binding
Measurement: E-score
Residues (chain): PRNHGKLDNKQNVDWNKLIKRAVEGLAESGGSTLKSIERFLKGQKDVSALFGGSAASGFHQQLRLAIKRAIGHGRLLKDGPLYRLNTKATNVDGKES
Sequence = ACACCTAT; value = -0.134
Sequence = TGGCCCAA; value = 0.155
Sequence = CAACGGCG; value = 0.171
Sequence = GACTGTAA; value = -0.132
Sequence = ACCCGAAA; value = 0.0428
Sequence = AGAAAATG; value = 0.158
Sequence = AACGGCCA; value = -0.0543
Sequence = GAGCGAAC; value = 0.0202
Sequence = CAAGACAA; value = 0.126
Sequence = GCTGAGGA; value = -0.0382
Sequence = ACGCAAAA; value = 0.0438
Sequence = TACGTTGA; value = -0.111
Sequence = CCGTGCTA; value = -0.145
Sequence = CGCCTCCC; value = 0.167
Sequence = ATGGCTAC; value = -0.147
Sequence = ATAATCTG; value = -0.136
Sequence = CGATCCAC; value = -0.107
Sequence = AGCCGAAT; value = 0.0657

Series 3
Target: Sal-like protein 4, full length isoform B (SALL4, Homo sapiens, UniProt Q9UJQ4-2, residues 1-616)
Technique: universal PBM
Form: double-stranded DNA, one strand shown
Matrix: in vitro
Tested at: not given
Setting: 8-mer, flanks averaged, mean of replicates
Direction: higher = stronger binding
Measurement: E-score
Sequence = AATATGGT; value = 0.271
Sequence = ATGGTTGC; value = -0.127
Sequence = CCAGCACC; value = -0.336
Sequence = AGAGTACC; value = -0.0448
Sequence = ATCATTGG; value = 0.163
Sequence = CGCCTCAG; value = -0.225
Sequence = ATAAGCAC; value = 0.115
Sequence = CTACATTA; value = 0.175
Sequence = ATCTGCAC; value = 0.0538
Sequence = GCACTAAC; value = -0.0604
Sequence = GGCACGCC; value = -0.466
Sequence = CAGCGCAA; value = -0.186
Sequence = CCCAGTCA; value = -0.176
Sequence = CGAGATAC; value = 0.159

Series 4
Target: Interferon regulatory factor 5, full length, phosphomimetic (IRF5, Homo sapiens, UniProt Q13568-2, residues 1-514, K96S/S451D/S453D/S456D/S462D)
Technique: protein-binding microarray
Form: double-stranded DNA, one strand shown
Matrix: in vitro
Tested at: 250 nM
Setting: 60-bp whole probe
Together with: salmon DNA 0.4 mg/ml
Relative to: random background probes
Direction: higher = stronger binding
Measurement: log fluorescence
Constant ends, left off below: GCCTAGCAC … GTCTTGATTCGCTTGACGCTGCTG
Sequence = GACGATTTCTGGTATCGAGACGTGCTA; value = 2.01 z-score
Sequence = AGTGTGGTCTGTTTCTGATAGTGCTAG; value = 0.633 z-score
Sequence = TTAGAACTGTGTCTCGATTAGTGCTAG; value = 0.493 z-score
Sequence = AAAAAAATCATTTTCTCTGTGTGCTAG; value = 1.38 z-score
Sequence = TTTTTTTTCTACTTCTGTTTGTGCTAG; value = 2.07 z-score
Sequence = AGAGCTCTGGCACCTCTAGACGTGCTA; value = -0.783 z-score
Sequence = TTAGGTATCGGGTATGGGTTAGTGCTA; value = 3.64 z-score
Sequence = TTCGGTATCGGTATCGGTTAGTGCTAG; value = 10.1 z-score
Sequence = TTAGGTTTGCTTTTCCTTTAGTGCTAG; value = 0.528 z-score
Sequence = AACGGACTGGACTATCGGGACGTGCTA; value = 0.663 z-score
Sequence = TTACGACTGGGTCTCGGTTAGTGCTAG; value = 0.683 z-score
Sequence = CTAGTTTTCATTTTCTGAATGTGCTAG; value = 3.27 z-score
Sequence = TAGATATTATATCTGTGTTAGTGCTAG; value = 0.922 z-score
Sequence = GACGATATCATTATCGAGACGTGCTAG; value = 2.85 z-score
Sequence = GACGAGCTGAGACTGGAGACGTGCTAG; value = -0.565 z-score

Series 5
Target: RNA binding protein fox-1 homolog 2, RRM domain, GST-SBP tag (RBFOX2, Homo sapiens, UniProt O43251-10, residues 100-194)
Technique: RNA Bind-n-Seq
Form: RNA
Matrix: in vitro
Tested at: 365 nM
Setting: natural RNA segment, single round, ends assumed
Relative to: no-protein control
Direction: higher = stronger binding
Measurement: RBNS enrichment (R)
Constant ends, left off below: GGGAGUUCUACAGUCCGACGAUC … UGGAAUUCUCGGGUGCCAA
Construct (chain): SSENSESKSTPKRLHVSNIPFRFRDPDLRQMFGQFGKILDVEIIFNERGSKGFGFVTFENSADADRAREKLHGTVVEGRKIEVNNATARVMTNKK
Sequence = CUGUGGCCCUGAUUUGUUCAGAGCCCAUUCUCCCUUGCCUCCCCUUUUGAGACUGGAGCCAACCCUUUUGGAGAGAGGACCUGCCCACCUUUGAGAUCAGCAGGGGGCUC; value = 0.552
Sequence = UCAAUUAAUAGAUUAAUCCAGAGACAGGAAGGAGGAAACGAAAGCUAGAGCCUCUUUGUGACUCCACCAACUCCUUCUUGUCUCCUUUUAUUGAAGAGUCCGCACACAUA; value = 0.376
Sequence = UUUAUACCAGACCAUUUUUACUAUGGAAUUUCAAGAGUUAAGGAUUGUCUUGGGAAACGUAGUCUAGAAAAAGCCACGUAGAGAAUAACGUGAUGUUCUAGAGUUGUAUG; value = 0.434
Sequence = UCUCGAUUUUGUUCUGAGGGUUUAUGAACUCAUUGAGAACCAGGAUUCCUUGAGACUCUUUAGCAUUAGUGCUCUGAGGUUAAAAGCAGUUCGGAAGACUCAUCUAGCCC; value = 0.31
Sequence = GGUGCCUCAGUGUUGGCCAAACUCUGGAGUCACUGACUGGUUUGACUUUCAUGUGGUAAAUAUGCAUUUGGUCUGUACUGAUCAUGGAAUAAACACAUCUCUCUUUUUUA; value = 0.257
Sequence = UUCAUCUGCUUCUUGGGUUUAAGCACACACCUGAAGGGGAGAUAUUGGGGGACACGGUGGCCACUCGCGGUCUGUGUCAUGACACUUCCCAUUCACAUCAUUGGCCUGCG; value = 0.997
Sequence = AGAGGUAGAAAACUUCAGUUGUUCCAGAUGAUGAUGUCAUGGUAUCGAGUAUUCUUUAUAUUCAGUUCCUAUUUAAGUCAUUUUUGUCAUGUCCGCCUAAUUGAUGUAGU; value = 0.449

Series 6
Target: Hepatocyte nuclear factor 3-alpha (Foxa1, Mus musculus, UniProt P35582, residues 1-468, full length assumed)
Technique: EMSA with sequencing
Form: double-stranded DNA, one strand shown
Matrix: in vitro
Tested at: 10 and 20 nM
Setting: whole designed probe, mean of two concentrations, ends assumed
Relative to: negative control set to 0
Direction: higher = stronger binding
Measurement: normalised bound fraction
Target sequence (chain): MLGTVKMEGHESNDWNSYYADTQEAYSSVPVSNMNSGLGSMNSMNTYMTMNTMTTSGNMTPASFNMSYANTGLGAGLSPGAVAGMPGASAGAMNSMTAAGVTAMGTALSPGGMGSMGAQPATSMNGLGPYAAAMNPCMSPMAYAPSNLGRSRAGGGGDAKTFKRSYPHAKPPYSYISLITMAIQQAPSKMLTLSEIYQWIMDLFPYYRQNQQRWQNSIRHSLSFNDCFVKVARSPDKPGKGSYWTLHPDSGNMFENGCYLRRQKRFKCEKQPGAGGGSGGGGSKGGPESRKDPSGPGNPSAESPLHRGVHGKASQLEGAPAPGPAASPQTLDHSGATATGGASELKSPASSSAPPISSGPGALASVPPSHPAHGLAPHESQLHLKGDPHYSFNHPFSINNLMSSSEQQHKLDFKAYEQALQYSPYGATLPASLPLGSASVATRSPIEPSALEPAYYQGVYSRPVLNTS
Sequence = GTGAGCGGTGCCCATTGATGGGGAACCTTCTAGCCTCCAGAGCTATAGGACTATGAATTAGTATGGTTTTAAGTTACTAGGTTTGTACTAATTTGTCACAGCAGCAATAGGAAACTAAAGCAATCTCCAGACCTAAGCTTCCTCCTGCCTCAGGTGGGATAATTCAGGCATGATGTGCATGGTTTCAGTGGGTTGGAGCCTCTGCTGCCCACTGCAGTATTTCACTGGGATCGTGGGGAC; value = -0.0685 ratio
Sequence = GTGAGCGGTGCCCATTGATGGGGAACGGTGACAAACCCAAGGCTTGTGGGCTCTGCACACCCTCCACAGTCTTTTGTGTGGCCTGTTGGCAGTTTGATTTTTACGTTTTTGGGGGATGTTGTTTGCTTTGTCTTTAAGTTTAGATGTCCGGGTTTTGTTGAGGAAAAAGAAACCCACACCAGATTTACAGTCCCCTAGATCCCCCATCTCATTCTGTGCTTTCACTGGGATCGTGGGGAC; value = 0.258 ratio
Sequence = GTGAGCGGTGCCCATTGATGGGGAACTACTGGTTATAAGGAGAAGAGGCTAACAACTGTAGTAGTCTCAGATTGCTACAATTTTACACTATGAAATATGAGTGCCACAGATTTTCAGAGTAATCTTGGGAGAGTAATCTAAAATAATGTGAAAATAAATCTCTAGTTAGATAGGAGTATCAGGAGAAAAGGCACAAGCAAGCATGCAAAGTGGAAAAAATTTCACTGGGATCGTGGGGAC; value = -0.00768 ratio

Series 7
Target: ABI1, truncated, D143A, DHFR fusion (Arabidopsis thaliana)
Technique: DHFR PCA, deep sequencing
Matrix: yeast
Setting: methotrexate growth selection, single substitutions
Together with: (+)-ABA 200 µM
Relative to: wild-type fitted maximum
Direction: higher = stronger binding
Measurement: relative binding score
Starting sequence: PYL1, truncated, DHFR fusion (Arabidopsis thaliana); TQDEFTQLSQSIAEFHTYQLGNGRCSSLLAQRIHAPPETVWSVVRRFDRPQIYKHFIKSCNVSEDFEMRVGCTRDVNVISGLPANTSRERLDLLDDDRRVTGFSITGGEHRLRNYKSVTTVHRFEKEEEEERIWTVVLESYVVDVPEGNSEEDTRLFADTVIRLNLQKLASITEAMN; partner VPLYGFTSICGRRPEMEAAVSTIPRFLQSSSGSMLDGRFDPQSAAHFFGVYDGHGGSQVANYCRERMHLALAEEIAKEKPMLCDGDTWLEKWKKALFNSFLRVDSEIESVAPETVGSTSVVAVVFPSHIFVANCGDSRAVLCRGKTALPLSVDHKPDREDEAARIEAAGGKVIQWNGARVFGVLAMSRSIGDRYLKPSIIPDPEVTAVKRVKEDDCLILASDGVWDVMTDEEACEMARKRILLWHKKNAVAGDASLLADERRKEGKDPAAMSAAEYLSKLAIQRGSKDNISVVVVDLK
Substitution = T86Y; value = 100%
Substitution = V40N; value = 9.38%
Substitution = A30H; value = 106%
Substitution = V136M; value = 101%
Substitution = T17C; value = 90.2%
Substitution = S26T; value = 104%
Substitution = L94I; value = 97.6%
Substitution = E38Y; value = 67.6%
Substitution = R99E; value = 47.4%
Substitution = H16G; value = 11.1%

Repeated from above (series 4):
Sequence = CTAGTTTTCATTTTCTGAATGTGCTAG; value = 3.27 z-score
Sequence = TTAGGTTTGCTTTTCCTTTAGTGCTAG; value = 0.528 z-score
Sequence = TTAGAACTGTGTCTCGATTAGTGCTAG; value = 0.493 z-score
Sequence = AAAAAAATCATTTTCTCTGTGTGCTAG; value = 1.38 z-score
Sequence = TTACGACTGGGTCTCGGTTAGTGCTAG; value = 0.683 z-score
Sequence = TAGATATTATATCTGTGTTAGTGCTAG; value = 0.922 z-score
Sequence = AGAGCTCTGGCACCTCTAGACGTGCTA; value = -0.783 z-score
